Experimental data gathered from unrelated publications.
Lines come from different studies, so protocols differ. Several values in a cell are separate wells, animals, samples, runs or records. ± marks the error that the study gave.

O=C(N[C@H](Cc1c[nH]c2ccccc12)C(=O)Nc1ccncc1)c1ccc(N2CCN(c3ccc(F)c(F)c3)CC2)cc1F — concentration (Swiss Webster mouse, female, heart; oral, 50 mg/kg, 8 h, 20% HPβCD vehicle): 310 nM
NC[C@@]1(CC(=O)O)[C@@H]2CC[C@H]3C[C@@H]2[C@@H]1C3 — AUC(0-inf) increase (human, mild renal impairment, plasma; dose not given; relative to: normal renal function): 14.6%
COc1cc2c3cc1Oc1c(OC)c(OC)cc4c1[C@@H](Cc1ccc(O)c(c1)Oc1ccc(cc1)C[C@@H]3N(C)CC2)N(C)CC4 — remaining compound (mouse plasma, K3EDTA; 4 h, on ice): 119%
O=C1CC[C@H](N2Cc3cc(N4CCN(CC5CCN(c6ccc([C@@H]7c8ccc(O)cc8CC[C@@H]7c7ccccc7)cc6)CC5)CC4)ccc3C2=O)C(=O)N1 — participants with TEAE dizziness (human; oral, 200 mg, added: rosuvastatin 10 mg): 8.3%
CCCCOC(=O)N1CCN(C(=O)[C@H](CP(=O)(O)O)NC(=O)c2cc(N3CC[C@H](OC)C3)nc(-c3ccccc3)n2)CC1 — change in QT interval (human; subcutaneous, 8 mg, 1 h post-dose; relative to: baseline): 11.2 ± 20.4 ms
Cl.N=C(CC(O)c1cc2c(F)cc(F)cc2c2cc(C(F)(F)F)ccc12)Nc1ccc(F)c(F)c1 (centres unmarked) — fraction bound (equilibrium dialysis; human liver microsomes 0.5 mg/mL; 1 µM, 24 h): 0.98
COc1c(N2C[C@@H]3CCCN[C@@H]3C2)c(F)cc2c(=O)c(C(=O)O)cn(C3CC3)c12 — QTcI change from baseline (healthy volunteers; oral, 400 mg single dose, day 5, 0.50 h): -5.9 ms
O=C(O)[C@@H](O)Cc1ccccc1 — share of total radioactive residue (laying hens, female, fat; oral, 10.7 mg/kg dry feed, 7 days): 14 % TRR
NC1(C(=O)N[C@@H](CCO)c2ccc(Cl)cc2)CCN(c2nc[nH]c3nccc2-3)CC1 — incidence of weight decreased (metastatic CRPC patients; 400 mg b.i.d., any grade, treatment-related, added: enzalutamide 160 mg daily): 14.3%
CN(C(=O)n1cnc(-c2cccnc2)c1)[C@H]1CC[C@H](O)CC1 — concentration (Wistar rat, midbrain; oral, 10 mg/kg/day of BIA 10-2474, 24 h, repeated 5 days): 19.9 ± 1.6 ng/g
Cc1cc(NC2CCN(C(=O)OC3CCN(C(=O)/C=C/CN(C)C)C3)CC2)n2ncc(C(C)C)c2n1 (centres unmarked) — patients with Dyspnea (patients with advanced solid tumours; dose not given, QD arm, grade 3 or higher): 7%
CN(CCCNC(=O)c1cccc(C(=O)O)c1)CCCNC(=O)c1cc(NC(=O)c2cc(NC(=O)c3cc(NC(=O)c4nc(NC(=O)[C@H](N)CCNC(=O)c5cc(NC(=O)c6cc(NC(=O)c7cc(NC(=O)c8nccn8C)cn7C)cn6C)cn5C)cn4C)cn3C)cn2C)cn1C — critical aggregation concentration (dynamic light scattering; 0.1% DMSO in PBS; 25 °C): 4 µM
CC1(C)CC[C@]2(NC(=O)C(C)(F)F)CC[C@]3(C)[C@H](C(=O)C=C4[C@@]5(C)C=C(C#N)C(=O)C(C)(C)[C@@H]5CC[C@]43C)[C@@H]2C1 — trough plasma concentration (human, plasma; oral, 150 mg once daily, day 24 predose, median): 36.6 ng/mL
CC[C@H](C)[C@H](NC(C)=O)C(=O)N[C@H]1CSSC[C@@H](C(=O)N[C@H](C(N)=O)[C@@H](C)O)NC(=O)[C@H](CCCNC(=N)N)NC(=O)[C@H](Cc2c[nH]cn2)NC(=O)[C@@](C)(CC)NC(=O)CNC(=O)[C@H](Cc2c[nH]c3ccccc23)NC(=O)[C@H](CC(=O)O)NC(=O)[C@H](CCC(N)=O)NC(=O)[C@H](Cc2c[nH]c3ccccc23)NC(=O)[C@H](C(C)C)NC1=O — retention factor (isocratic RP-HPLC, C18; 32% acetonitrile, phosphate pH 7.4, 1% TFA; 25 °C): 1.31 ± 0.008
COc1cc2nccc(Oc3ccc(NC(=O)c4cc5c(n(-c6ccccc6)c4=O)CCCC5=O)nc3)c2cc1OC — grade ≥3 Anaemia patients (relapsed or refractory AML; oral, 6 mg once daily): 33.3%
CNCCOC12CC3(C)CC(C)(CC(Cn4ncc(-c5ccc(N6CCc7cccc(C(=O)Nc8nc9ccccc9s8)c7C6)nc5C(=O)O)c4C)(C3)C1)C2 — heart rate change (beagle dog, male, anaesthetised; intravenous bolus, 0.03 mg/kg, 10 min; relative to: baseline): 5%
CC(C)C[C@H](NC(=O)[C@@H](Cc1c[nH]c2ccccc12)NC(=O)[C@H](Cc1ccc(O)cc1)NC(=O)[C@H](CO)NC(=O)[C@H](Cc1c[nH]c2ccccc12)NC(=O)[C@H](Cc1c[nH]cn1)NC(=O)[C@@H]1CCC(=O)N1)C(=O)N[C@@H](CCCNC(=N)N)C(=O)N1CCC[C@H]1C(=O)NCC(N)=O — patients, drug-related TEAEs (Chinese CPP children, boys; intramuscular, 22.5 mg, 12 months, day 1, month 6): 75%
O=C(O)CCC(=O)O.[2H]C([2H])([2H])Oc1cc(C)c2[nH]ccc2c1CN1CC[C@@H](C2CC2)C[C@H]1c1ccc(C(=O)O)cc1 — subjects with papular urticaria TEAE (multiple ascending dose; healthy Chinese subjects; 50 mg twice daily): 0%
CCCCCCCCCCCC(=O)[O-].C[N+](C)(C)CCO — critical aggregation concentration (fluorescence probe; water; 37 °C): 14100 ± 180 µM
C=CC(=O)Nc1cc(Nc2nccc(-c3cn(C)c4ccccc34)n2)c(OC)cc1N(C)CCN(C)C — recovery (storage stability; human dried blood spot; 10 d, on ice, MQC level): 73.1%
CCc1cc(C(=O)NC)c2nccc(N3CCc4c(cc(Cn5ccnc5)cc4-c4cn(C)nc4C(F)(F)F)C3=O)c2c1 — serum albumin (Sprague Dawley rats; oral, 100 mg/kg once daily, 7 days): 33 ± 1.45 g/L
C=CCN1CC(=O)N2[C@@H](Cc3ccc(O)cc3F)C(=O)N(Cc3cccc(N4CC(N5CCN(CC)CC5)C4)n3)C[C@@H]2N1C(=O)NCc1ccccc1 — treatment-related vomiting (advanced solid tumour patients; oral, 20 mg twice daily, any grade, dose-escalation): 66.7%
COc1nnc2ccc(N3CCC(c4ccc(OCCN5CCN(C)C(=O)[C@H]5C)cc4)CC3)nn12 — terminal half-life (human, plasma; oral, 30 mg once daily, multiple dose, monotherapy): 3.73 h
Cc1c(C(=O)O)ccc2c3n(nc12)[C@@H]1[C@H](C3)N(CC2CC2)[C@@]2(C(=O)Nc3cc(Cl)ccc32)[C@H]1c1cccc(Cl)c1F — adverse event incidence (phase Ia trial, measured: Fatigue; cancer patients; oral, dose not given, all patients grade ≥3): 1.9%
CC(C)(C(=O)N1CCOc2c(C#N)cncc2C1)C(F)F — subjects with TEAE (measured: nervous system disorders; healthy humans, both sexes; oral, 10 mg single dose): 0%
COc1ccc2c(=O)n(C)c(-c3ccccc3)nc2c1 — tissue concentration (male Sprague-Dawley rat, bladder; oral, 30 mg/kg, 2 h): 154 ng/g
O=C(COc1ccc(Cl)cc1)NC12CC(c3nnc([C@H]4C[C@@H](OC(F)(F)F)C4)o3)(C1)C2 — treatment-emergent adverse events (at least 1 event; human, both sexes; oral, 100 mg, single ascending dose, fed; relative to: subjects): 50%
COc1ncc(-c2nc3c(n2C(C)C)[C@H](c2ccc(Cl)cc2)N(c2cc(Cl)cn(C)c2=O)C3=O)c(OC)n1 — median half-life (human patients, plasma; oral, 12.5 mg, high-dose arm, cycle 1 day 1): 7.2 h
O=C(Nc1nc2cccc(-c3ccc(CN4CCS(=O)(=O)CC4)cc3)n2n1)C1CC1 — patients with adverse event (measured: angina pectoris; rheumatoid arthritis patients; oral, 300 mg once daily, 4 weeks, any relatedness): 0%
O=C(c1cccnc1-c1ccncc1)N1CCC(O)(Cc2ccccc2)CC1 — slope, QTcF-concentration relationship (human, plasma; oral, single analyte model): 0.00013 ms/(ng/mL)
CNCc1ccc(-c2[nH]c3cc(F)cc4c3c2CCNC4=O)cc1 — patients with adverse event (measured: Nausea; human patients; oral, 600 mg twice daily, grade 3): 0%
CCC(C)n1ncn(-c2ccc(N3CCN(c4ccc(OCC5COC(Cn6cncn6)(c6ccc(Cl)cc6Cl)O5)cc4)CC3)cc2)c1=O (centres unmarked) — adverse events (healthy human volunteers; oral, 200 mg, event Headache, continued dosing): 0%
C=CC(=O)NC1CCN(c2ncc3ncnc(Nc4ccc(Oc5ccc6c(c5)ncn6C)c(C)c4)c3n2)CC1 — adverse events incidence (measured: investigations (SOC); human male; oral, dose not given, CTCAE on-treatment AEs): 0%
C[C@@H](Oc1ccc(S(C)(=O)=O)cc1C(=O)N1C[C@@H]2C[C@]2(c2cc(C(F)(F)F)on2)C1)C(F)(F)F — subjects with gastrointestinal disorders (human; oral, 25 mg): 50%
COc1cccc(OC)c1-c1cc(C(=O)NC2(C(=O)O)C3CC4CC(C3)CC2C4)nn1-c1ccc(C(=O)N(C)CCCN(C)CCCN(C)C(=O)CN2CCN(CC(=O)[O-])CCN(CC(=O)[O-])CCN(CC(=O)[O-])CC2)cc1C(C)C.[177Lu+3] (centres unmarked) — tissue uptake (mouse HT-29 xenograft, small intestine; 72 h post injection, biodistribution): 0.103 %ID/g
O=c1cc(CO)occ1[O-].[Cl-].[W+4].c1cc[cH-]c1.c1cc[cH-]c1 — oxidation peak potential (cyclic voltammetry; acetonitrile; relative to: Ag/AgCl): 0.67 to 0.73 V
Cc1cc(C(=O)NC(C)(C)COc2cccc3c2C(N)=NS(=O)(=O)N3)cc(C)n1 — dose-normalised AUC(0-last) (Sprague-Dawley rat, male, plasma; oral, 30 mg/kg): 1.11 ng·h/mL/mg/kg
CN(CC#N)C(=O)C[C@H](Nc1nc2ccccc2[nH]1)c1cccc(C(F)(F)F)c1 — apparent volume of distribution (human; intravenous infusion, 4 mg/kg, 1 mg/mL formulation): 80.4 ± 12.1 L
COc1cc2c3c(n(CCCN4CCOCC4)c(=O)c2cc1OC)-c1cc2c(cc1C3=O)OCO2 — body weight loss (rat; intravenous, 48-60 mg/m^2, 5 days once daily; relative to: control): 13 to 20%
N#Cc1ccc2c(c1)[C@H]1CCCN(C(=O)c3ccc4[nH]cnc4c3)[C@H]1C2 — SHBG level (human females; 10 mg, day 7): 28 nmol/L
Cl.[2H]C([2H])([2H])CC(=O)c1cnc(NC(=O)C2CC2)cc1Nc1cccc(-c2ncn(C([2H])([2H])[2H])n2)c1OC — AUC(0-tau) (human, fasted, multiple dose; oral, 20 mg once daily, tablet, day 1, geometric mean): 1340 ng·h/mL
Cn1cc(Nc2nccc(-c3ccc4c(c3)CN(C3COC3)CC[C@H]4NC(=O)c3cn(C(C)(C)C)nn3)n2)cn1 — naive B cell count change (human, whole blood; 300 mg twice daily, day 7; relative to: pre-dose baseline): 87.1%
C[C@@H](N)C1CCN(S(=O)(=O)c2cccc3cnccc23)CC1 — Vz/F (healthy volunteers, fasted, plasma; oral, 250 mg): 4940 L
CCOc1c([C@H](C)n2nc(C)c3c(N)ncnc32)cc(Cl)c(F)c1[C@@H]1CNC(=O)C1 — patients (measured: QRS >100 to ≤110 ms; previously treated B-cell malignancy; oral, 10 mg once daily, baseline below thresholds): 0%
CC[C@H](C)[C@H](NC(=O)[C@H](CO)NC(=O)[C@H](CCCNC(=N)N)NC(C)=O)C(=O)N[C@H]1CSSC[C@@H](C(=O)N[C@H](C(N)=O)[C@@H](C)O)NC(=O)[C@H](CCCNC(=N)N)NC(=O)[C@H](Cc2c[nH]cn2)NC(=O)[C@H](Cc2cccc3ccccc23)NC(=O)CNC(=O)[C@H](Cc2c[nH]c3ccccc23)NC(=O)[C@H](CC(=O)O)NC(=O)[C@H](CCC(N)=O)NC(=O)[C@H](Cc2cccc3ccccc23)NC(=O)[C@H](C(C)C)NC1=O — retention factor (isocratic RP-HPLC, C18; 32% acetonitrile, phosphate pH 7.4, 1% TFA; 25 °C): 7.076 ± 0.005
C/C(=N\c1ccc(O)cc1)c1cc2ccccc2n1C — remaining compound (rat plasma; 50 ng/mL, 15 days, -80 °C; relative to: nominal concentration): 99.9 ± 3.4%
O=S(=O)(c1ccc(-c2ccc3nccc(Nc4ccncn4)c3c2)cc1)N1CCOCC1 — brain concentration (female BALB/c mice; intraperitoneal, 10 mg/kg, 0.25 h): 50 ng/mL and 61.7 ng/mL
O=[N+]([O-])c1ccc(-c2ccc(O)cc2)c2cccnc12 — clearance (ICR mice male, plasma; intravenous, 1 mg/kg): 122 mL/min/kg
CCCCC[C@H]1CC[C@H](c2ccc(OCC)c(F)c2F)CC1 — fetal accumulation (rat, fetus; 10 ng/mL in perfusate, low dose, mixture of 21 LCMs): 1.12 ± 1.07 ng/g
CCN1CCN(Cc2ccc(Nc3ncc(F)c(-c4cc(F)c5nc6n(c5c4)[C@H](C)CCC6)n3)nc2)CC1 — CL/F (human, plasma; 500 mg single dose, mean): 33.2 L/h

A few entries again:
CC(C)C[C@H](NC(=O)[C@@H](Cc1c[nH]c2ccccc12)NC(=O)[C@H](Cc1ccc(O)cc1)NC(=O)[C@H](CO)NC(=O)[C@H](Cc1c[nH]c2ccccc12)NC(=O)[C@H](Cc1c[nH]cn1)NC(=O)[C@@H]1CCC(=O)N1)C(=O)N[C@@H](CCCNC(=N)N)C(=O)N1CCC[C@H]1C(=O)NCC(N)=O — patients, drug-related TEAEs (Chinese CPP children, boys; intramuscular, 22.5 mg, 12 months, day 1, month 6): 75%
O=C(O)CCC(=O)O.[2H]C([2H])([2H])Oc1cc(C)c2[nH]ccc2c1CN1CC[C@@H](C2CC2)C[C@H]1c1ccc(C(=O)O)cc1 — subjects with papular urticaria TEAE (multiple ascending dose; healthy Chinese subjects; 50 mg twice daily): 0%
CCCCCCCCCCCC(=O)[O-].C[N+](C)(C)CCO — critical aggregation concentration (fluorescence probe; water; 37 °C): 14100 ± 180 µM
C=CC(=O)Nc1cc(Nc2nccc(-c3cn(C)c4ccccc34)n2)c(OC)cc1N(C)CCN(C)C — recovery (storage stability; human dried blood spot; 10 d, on ice, MQC level): 73.1%
